# Published values pooled from the literature.
# Protocols differ between the studies behind these lines.
# Target: Serine/threonine-protein kinase STK11 (STK11, Homo sapiens, UniProt Q15831)
Compound,assay,test system,setting,how to read,quantity,value
CNC(=O)C[C@H](Cc1ccc(C#N)cc1)NC(=O)c1cc(-c2ccc(CN[C@H](C)c3ccc(C)cc3)o2)ccc1Cl,"enzyme activity, inhibitor",,1 µM,,activity vs control,99%
COc1c(Cl)cccc1Nc1c(-c2ccncc2C#C[C@@]2(C)CCCN2C(=O)/C=C/CN(C)C)[nH]c2c1C(=O)NCC2,"binding, competition with immobilised ligand",,3 µM,,remaining binding,53%
Cc1ccc(-c2c(/C=C(\C#N)C(=O)NC(C)C)n(CCCO)c3ncnc(N)c23)cc1,"cell-free assay, competition with immobilised ligand",,1 µM,,remaining binding,100%
CS(=O)(=O)Nc1cccc(-c2csc3cnc(Nc4ccc(N5CCN(CCCCCOc6cccc7c6C(=O)N(C6CCC(=O)NC6=O)C7=O)CC5)cc4)nc23)c1 (stereo not drawn),"probe labelling, inhibitor, KiNativ chemoproteomics",MOLT-4,1 µM,,inhibition,1.81%
COc1cc(Nc2nccc(-c3cnn4nc(OC)ccc34)n2)cc(C(F)(F)F)c1,"binding, competition with immobilised ligand",,1 µM,,remaining binding,76%
C=CC(=O)N1CCCC(n2c(=O)c3ncccc3n(Cc3ccc(Oc4ccccc4)cc3)c2=O)C1 (stereo not drawn),"cell-free assay, competition with immobilised ligand",,1 µM,,remaining binding,87%
O=C(Cc1ccc(OCc2ccccc2)cc1)NC1(C(=O)O)CCN(C(=O)c2ccc(-c3cccc(Cl)c3)cc2)CC1,"enzyme activity, inhibitor",,10 µM,,activity vs control,101%
CN1CC[C@@H](COc2cnc(C#N)cc2-c2ccn3nc(NC(=O)C4CC4)cc3c2)C1,"enzyme activity, inhibitor",,1 µM,,inhibition,5%
CNC1C[S+]2CC[S+]3CC[S+](C1)[Ru-4]321([N]=C=S)[n]2c3ccc(OC)cc3c3c4c(c5cc(F)c[n+]1c5c32)C(=O)NC4=O (stereo not drawn),KinomeScan,,0.1 µM,reference: untreated,remaining binding,100%
CC(C)=CC1OC(C)(C)C2C=C3C(=O)C(Cl)=CC(O)C3C3C(O)C4OC4C(=O)C132 (stereo not drawn),"cell-free assay, competition with immobilised ligand",,10 µM,,remaining binding,100%
C=CC(=O)Nc1cc(-c2nn(C3CCN(CCNC(=O)[C@H](C)CCC45CC6CC(CC(C6)C4)C5)CC3)c3ncnc(N)c23)ccc1Oc1ccccc1,"inhibitor, KiNativ profiling",biochemical,2 µM,,inhibition,2.7%
CN1CCN(Cc2ccc(NC(=O)c3cccc(C#Cc4cnc(N)c5ncccc45)c3)cc2C(F)(F)F)CC1,"cell-free assay, competition with immobilised ligand",,0.5 µM,,remaining binding,61%
CNS(=O)(=O)Nc1nccc(Cc2c(C)c3ccc(Oc4ncccc4F)cc3oc2=O)c1F,"binding, competition with immobilised ligand",,10 µM,,remaining binding,76%
NC(=O)C[C@H]1CCc2sc3ncnc(O[C@H]4CC[C@H](N5CCOCC5)CC4)c3c21,"enzyme activity, inhibitor",,10 µM,,inhibition,2%
COc1ccc(NC(=O)Nc2ccc3c(c2)C(=O)N(C(C)CO)CC(C)C(CN(C)Cc2ccc4c(c2)OCO4)O3)cc1 (stereo not drawn),"kinase activity, KinaseProfiler",,"0.03 µM, species human",reference: control,remaining activity,87%
